Results of several laboratories.
A part holds a random share of what one study measured.

Series 1 — method: RNA Bind-n-Seq; molecule type: RNA; medium: in vitro; concentration: 20 nM; notes: 6-mer, flanks averaged, single round; with: 150 mM KCl; reference: input library; direction: higher = stronger binding; quantity: 6-mer enrichment (R)
Target: TAR DNA-binding protein 43, full length, His tag (TARDBP, Homo sapiens, UniProt Q13148, residues 1-414)
GGAGAC: 1.59
AUACCA: 0.615
AACUAC: 0.612
GCGUCA: 0.903
GUCCGA: 0.823
ACCGUG: 0.85
AACUGC: 0.642
UCACUA: 0.559
ACGAAC: 0.666
AUACUA: 0.609
GGUCAG: 1.65
CCCAGC: 0.688
UGCGAC: 0.824
CCCUAU: 0.643
GACAAA: 0.763
GUAGUA: 0.882
UGUAUC: 0.621
CCUCGA: 0.618

Series 2 — method: RNA Bind-n-Seq; molecule type: RNA; medium: in vitro; concentration: 200 nM; notes: whole 134-nt RNA, ends assumed; with: 150 mM LiCl; reference: input library; direction: higher = stronger binding; quantity: log2 enrichment; library: 7-deaza-guanosine replaces G
Target: Fragile X messenger ribonucleoprotein 1, C-terminal low-complexity region (Fmr1, Mus musculus, UniProt P35922)
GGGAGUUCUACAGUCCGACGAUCGUCCUGUGCUACACAUCGUAUGUACCGAAUCGGGGAAAGGGGUUUGGGGUUUUUGGGGAAAGUAUUAUGUUACGCCGUUCGGAUCUGCACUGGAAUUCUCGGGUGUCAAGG: -1.1
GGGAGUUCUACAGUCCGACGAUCAAGUCCUGUGCUACACAUCGUAUGUACCGAAUCGGUUUGGAAAAAGGUUUUUUUGGAAAGUAUUAUGUUACGCCGUUCGGAUCUGCACUUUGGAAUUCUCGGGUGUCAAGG: -2.68
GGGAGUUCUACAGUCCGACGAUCUGGCCCUGGUGGCAUGCGGGGAGGAAGAGGUGGCCUCAUGGAUCCUGGUGGUCCCGGUGGAAUGUUCAGAGGUGGCCGUGGUGGAGACAGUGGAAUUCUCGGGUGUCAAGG: -0.752
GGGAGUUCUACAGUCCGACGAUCAAGUCCUGUGCUACACAUCGUAUGUACCGAAUCGGUUUUUGGUUUUUUUGGUUUGGAAAGUAUUAUGUUACGCCGUUCGGAUCUGCACUUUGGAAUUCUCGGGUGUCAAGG: -2.57
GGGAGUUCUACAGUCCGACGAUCGUCCUGUGCUACACAUCGUAUGUACCGAAUCGGCCCCCGGGGCCCCCGGGCCCCCGGGGAAAGUAUUAUGUUACGCCGUUCGGAUCUGCAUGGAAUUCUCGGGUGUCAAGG: -2.92
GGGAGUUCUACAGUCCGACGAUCUGGGAGGUGUAUUUUGUUUAUUUUUUUAGCUCAUUUCCAGGGGUGGGAAUUUUUUUUUAAUAUGUGUCAUGAAUAAAGUUGUUUUUGAAAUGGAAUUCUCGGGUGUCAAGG: 0.457
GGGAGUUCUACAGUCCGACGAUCUUGUGAUAGCCAAGUGGGACUACACCGCCCAGCAGGACCAGGAGCUGGACAUCAAGAAGAACGAGCGGCUGUGGUUGCUGGACGACUCCAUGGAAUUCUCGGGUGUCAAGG: -1.55
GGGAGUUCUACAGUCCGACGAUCACCAUGCAGGUGGGCAUCUUUAAAAAGUGGGGCAAGGGGGGGAUAGGGAGGGGGGUAACACUUUGGGAACAGGUGGUCCCAGGUCGUUUCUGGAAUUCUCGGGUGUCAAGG: 1.37

Series 3 — method: RNA Bind-n-Seq; molecule type: RNA; medium: in vitro; concentration: 365 nM; reference: no-protein control; direction: higher = stronger binding; quantity: RBNS enrichment (R)
Target: RNA binding protein fox-1 homolog 2, RRM domain, GST-SBP tag (RBFOX2, Homo sapiens, UniProt O43251-10, residues 100-194)
Notes: natural RNA segment, single round, ends assumed
Construct (chain): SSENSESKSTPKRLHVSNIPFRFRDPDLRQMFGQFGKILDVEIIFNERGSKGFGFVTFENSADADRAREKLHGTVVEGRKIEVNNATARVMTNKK
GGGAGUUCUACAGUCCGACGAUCGGUUUUGGUUUGGCUUCUUUUAGUCAGGCUUUCUGAACAUUGAGAUAUCCUGAACUUAGAGCUCUUCAAUCCUAAGAUUUUCAUGAAAAGCCUCUCACUUGAACCCAAACUGGAAUUCUCGGGUGCCAA: 0.605
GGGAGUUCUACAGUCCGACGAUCUGUUUUUGAAAUGUGUAUUUCUAAUUAUAUAAAAUAUUAAGAAUCUUUUAAAAAAAUCUGUGAAAUUAACAUGCUUGUGUAUAGCUUUCUAAUAUAUAUAAUAUUAUGGUUGGAAUUCUCGGGUGCCAA: 2.91
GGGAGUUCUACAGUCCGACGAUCGAAGACGGGUAGGAAGGAUACUAGGUAGGCAGCGUUGCUGAACAAUCUAAGUUGUGGUUCUUAGCCUGUCCCAGGAACAGCAGCAUGGGAGGCUAGGAACUUAACAGAAAUGGAAUUCUCGGGUGCCAA: 0.836
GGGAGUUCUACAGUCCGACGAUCACACCAGAGUCUGUACUUUUCUAUAACACAGCUCAGAUUAAGGUAGGGCAUAUGCCAAGGAGGUUCUCACCUCCCUAAAGAAGGGACUUGAAUUUUAGGGACUUUAAUUCUGGAAUUCUCGGGUGCCAA: 0.205
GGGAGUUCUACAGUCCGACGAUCCUUGGUGUCUGACUUCAGAGAGUCCUACAUGAACUCAGUAAUCCACAUCUCUCACACAGCUGAGAGUCACCUUUCCAGGCGGGCCUGGCCUUGUGUAGAAAGUCUCUGGGUGGAAUUCUCGGGUGCCAA: 0.443
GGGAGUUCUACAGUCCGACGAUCACAGUACAGUGCAGGAGAAGCAGCUGAGUUGGCCUGGUCUAAGGAUACCCCCUAGCAAACUUGGCCCUCUCCAUCUGUUCUGGGACUCUAUACUUCCCUAACCUGGAUCCUGGAAUUCUCGGGUGCCAA: 0.29
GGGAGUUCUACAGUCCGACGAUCUGCAGAUGUGCAUUUUCCUUUUGGUAGAAAUGGUCCACAGCACUAACUGGUAAGGCUUAUUGUACAGUAUAUUGUCAGUAUUCUUCUGGUUCAGCAUACCUUAUAGUUCGUGGAAUUCUCGGGUGCCAA: 0.631
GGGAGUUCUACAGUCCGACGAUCCAAAAUGAAACCUUGACAUUCUGGGAAGGAUUCCUAGCAGCUGAAUCCUAUUGACAAUGUGAGCUCCUCUGAGUGUCUGUGAAAUACUUCCAGUGUUCCUCAUCAUGUUUUGGAAUUCUCGGGUGCCAA: 0.674

Series 4 — method: protein binding microarray; molecule type: double-stranded DNA, one strand shown; medium: in vitro; concentration: not given; reference: not given; direction: higher = stronger binding; quantity: E-score
Target: Histone acetyltransferase KAT6A, both winged helices, GST fusion (KAT6A, Homo sapiens, UniProt Q92794, residues 1-181)
Notes: 8-mer, flanks averaged, mean of 2 arrays, mostly near background
Construct (chain): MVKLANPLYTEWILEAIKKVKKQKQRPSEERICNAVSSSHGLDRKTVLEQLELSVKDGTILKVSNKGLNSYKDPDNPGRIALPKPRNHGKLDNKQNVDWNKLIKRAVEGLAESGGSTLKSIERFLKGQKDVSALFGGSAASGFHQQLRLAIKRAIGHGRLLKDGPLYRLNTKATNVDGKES
AAAGCCAC: -0.206
TCAGCAGA: -0.183
GGGGACGA: 0.0344
ACTTAAGT: -0.0995
GAACACAA: -0.205
CCTTTGTA: -0.203
CCACGCAC: 0.198
ACTGAGTC: -0.0133
ACGGTGAC: 0.071
GGGTAGAC: 0.116
GCTCGATA: 0.0326
ATGGTCTA: -0.132
GCTGAACC: 0.0328
CGCCCGAG: 0.108
TCTAAAGA: -0.0541
CCCCTTGC: -0.219
AGAGCCCT: -0.211
GATCCGTA: 0.218
GGGATTCA: -0.06
ATTCCCCC: -0.149
TGCAACCA: -0.181
CATACCTA: -0.171

Excerpt of the above (series 4):
AGAGCCCT: -0.211
AAAGCCAC: -0.206
ACTGAGTC: -0.0133
GCTGAACC: 0.0328
CCCCTTGC: -0.219
GGGTAGAC: 0.116
ACGGTGAC: 0.071
